Measured values collected from several papers.
Lines come from different studies, so protocols differ. ± gives the spread as reported. Values after ≈ are worked out from the molar mass of the structure shown.

`CCCCCCCC(=O)SCC/C=C/[C@@H]1CC(=O)NCc2nc(cs2)C2=N[C@@](C)(CS2)C(=O)N[C@@H](C(C)C)C(=O)N1`: “beta rate constant” 0.005 min⁻¹ (mouse NIH Swiss, female; intravenous, 5 mg/kg).
`CC[C@H](C)[C@H](NC(=O)[C@H](Cc1ccccc1)NC(=O)[C@H](CC(=O)O)NC(=O)[C@@H]1CCCNC(=O)NCCC[C@H](NC(=O)[C@H](CC(C)C)NC(=O)[C@H](CCCNC(=N)N)NC(=O)[C@H](CCSC)NC(=O)[C@H](C)N)C(=O)N[C@@H](CCCCN)C(=O)N[C@@H](Cc2ccccc2)C(=O)N[C@@H](Cc2ccccc2)C(=O)N1)C(=O)N[C@@H](CC(C)C)C(=O)N[C@@H](CCC(N)=O)C(=O)N[C@@H](CCCNC(=N)N)C(=O)N[C@@H](CCCCN)C(=O)N[C@@H](CCCCN)C(=O)O` has a helicity of 31.5% (circular dichroism; 20% TFE in PBS; 200 µM, pH 7.4, 25 °C).
With `CN[C@](C)(C[18F])C(=O)O` the tissue uptake was 0.5 ± 0.1 %ID/g (SCID mouse U87 xenograft, brain; 15 min, post injection).
`COc1cc2ncnc(Oc3cccc(N[11C](=O)Nc4cc(C(C)(C)C(F)(F)F)on4)c3)c2cc1OC` gave a radioactivity of 6.34 ± 0.78 %ID/g (female Balb/c nude mice, urine; intravenous, dose not given, 30 min).
`CN(C)C(CNC(=O)Nc1cc(C(F)(F)F)ccc1N1CCOCC1)c1ccncc1` (stereo not drawn): “serum indirect bilirubin” 0.2 mg/dL (mouse, serum; intraperitoneal, 240 mg/kg single dose).
Under “log octanol-water partition coefficient”, `CCCCCCCCCCCCC(=O)O.O=C1CCCC2C3CCCN4CCCC(CN12)C34` (stereo not drawn) is recorded as -0.43 (shake-flask; simulated gastric fluid; pH 1.2, 25 °C).
`COc1cc(NC(=O)C(=O)c2c(C)n(Cc3ccc(Cl)cc3)c3ccc(C)cc23)ccn1` gave a clearance of 8 mL/min/kg (male cynomolgus monkey, plasma; intravenous, 1 mg/kg).
For `CC[C@H](C)[C@@H]1NC(=O)[C@H](CCCCN)NC(=O)[C@H](CCCCN)NC(=O)[C@H](Cc2ccc(O)cc2)NC(=O)[C@H](CC(C)C)NC(=O)[C@@H]2CCCN2C(=O)[C@H](C)NC(=O)CNC(=O)CNC(=O)[C@H](CO)NC(=O)CNC(=O)CNC(=O)[C@H](CO)NC(=O)[C@H](CCC(=O)O)NC(=O)[C@H](CC(C)C)NC(=O)[C@H](CC(C)C)NC(=O)[C@H](CCCCN)NC(=O)[C@H](CCCCN)NC(=O)[C@H]([C@@H](C)CC)NC(=O)[C@H]([C@@H](C)CC)NC(=O)[C@H](CCCCN)NC(=O)[C@H](CCCCN)NC(=O)[C@H](Cc2ccc(O)cc2)NC(=O)[C@H](CC(C)C)NC(=O)[C@@H]2CCCN2C(=O)[C@H](C)NC(=O)CNC(=O)[C@@H](NC(=O)CN)CSSC[C@@H](C(=O)N[C@@H](CCC(=O)O)C(=O)N[C@@H](CO)C(N)=O)NC(=O)[C@H](CC(C)C)NC(=O)[C@H](CCCCN)NC(=O)[C@H](CCCCN)NC(=O)[C@H]([C@@H](C)CC)NC1=O`, “remaining intact peptide” read 52 ± 4.9% (25% human serum; 50 µM, 24 h; baseline: 0 h control).
`CC(=CCC(O)C(C)=Cc1csc(C)n1)CC=CC(C)C(O)C(C)C(=O)C(C)(C)C(O)CC(=O)O` (stereo not drawn) has an AUC of 527 ± 461 ng·h/mL (human, plasma; intravenous infusion, 42 mg/m2 KOS-1584, 3 h infusion, cycle 1).
`CSCC[C@H](NC(=O)CNC(=O)[C@H](CC(=O)O)NC(=O)[C@@H](NC(=O)[C@@H](NC(=O)[C@@H](NC(=O)CNC(=O)[C@H](CCC(N)=O)NC(=O)[C@H](CCSC)NC(=O)[C@H](CC(=O)O)NC(=O)[C@H](C)NC(=O)[C@H](C)NC(=O)[C@@H](NC(=O)[C@H](CO)NC(=O)[C@@H](N)CC(C)C)[C@@H](C)O)C(C)C)C(C)C)[C@@H](C)O)C(=O)N[C@@H](C)C(=O)N[C@@H](CO)C(=O)NCC(=O)N[C@@H](CC(C)C)C(=O)N[C@@H](CC(=O)O)C(=O)N[C@@H](CCCCN)C(=O)N[C@@H](CC(=O)O)C(=O)N[C@@H](Cc1ccc(O)cc1)C(=O)N[C@@H](CC(C)C)C(=O)N[C@@H](CCCCN)C(=O)N1CCC[C@H]1C(=O)N[C@@H](CC(=O)O)C(=O)N[C@@H](CC(=O)O)C(=O)O` has a clearance of 19.6 mL/min/kg (human, serum; intravenous, 3.33 mg/kg, patients, infusion).
`CCCS(=O)(=O)c1ccc2[nH]c(NC(=O)OC)nc2c1` has a percent metabolized of 0.99% (human liver cytosol; 1 µM, 30 min, 1 mg/mL protein).
`CC(=O)NC1C(OC2OC(CC(O)C3OC(n4ccc(=O)[nH]c4=O)C(O)C3O)C(O)C(O)C2NC(=O)COCc2ccc(N3CCC(Oc4ccc(OC(F)(F)F)cc4)CC3)cc2)OC(CO)C(O)C1O` (stereo not drawn) gave a water solubility of 12.5 mg/mL (≈ 12.3 mM) (neutral form).
For `CCCC[C@H]1C(=O)N(C)[C@@H](CCCC)C(=O)N[C@@H](CCCNC(=O)CN2CCN(CC(=O)O)CCN(CC(=O)O)CCN(CC(=O)O)CC2)C(=O)N[C@H](C(=O)NCC(N)=O)CSCC(=O)N[C@@H](Cc2ccc(O)cc2)C(=O)N(C)[C@@H](C)C(=O)N[C@@H](CC(N)=O)C(=O)N2CCC[C@H]2C(=O)N[C@@H](Cc2c[nH]cn2)C(=O)N[C@@H](CC(C)C)C(=O)N(C)CC(=O)N[C@@H](Cc2c[nH]c3ccccc23)C(=O)N[C@@H](CO)C(=O)N[C@@H](Cc2c[nH]c3ccccc23)C(=O)N1C` [gallium-68 labelled], the tumour uptake was 5.9 ± 1.08 %ID/g (static PET; NOD/SCID mice, CHO-hPD-L1 xenograft, CHO-hPD-L1 tumour; intravenous, 1 h post injection, after five PBS treatments).
`CC[C@H](C)C(=O)N1CCC(NC(=O)Nc2ccc(OC(F)(F)F)c(F)c2)CC1` — result for “subjects with palpitations TEAE”: 16.7% (healthy volunteers; oral, 2 mg single dose).
`COCC(=O)NCCSc1c(-c2ccc(Br)cc2)[nH]c2ccccc12` gave a hepatocyte CLint of 259 µL/min/10⁶ cells (metabolic stability; human, hepatocytes).
With `CC[C@H](C)[C@H](NC(=O)[C@H](CC(=O)O)NC(=O)[C@H](CO)NC(=O)[C@H](CCC(N)=O)NC(=O)[C@H](C)NC(=O)[C@H](CC(=O)O)NC(=O)[C@H](CCC(=O)O)NC(=O)[C@H](Cc1c[nH]cn1)NC(=O)[C@H](Cc1ccc(O)cc1)NC(=O)[C@H](C)NC(=O)[C@H](CC(=O)O)NC(=O)[C@H](CCC(=O)O)NC(=O)[C@H](Cc1c[nH]cn1)NC(=O)[C@H](Cc1ccc(O)cc1)NC(=O)[C@H](C)NC(=O)[C@H](CC(=O)O)NC(=O)[C@H](CCC(=O)O)NC(=O)[C@H](Cc1c[nH]cn1)NC(=O)[C@H](Cc1ccc(O)cc1)NC(=O)[C@H](C)NC(=O)[C@H](CC(=O)O)NC(=O)[C@H](CCC(=O)O)NC(=O)[C@H](Cc1c[nH]cn1)NC(=O)[C@H](Cc1ccc(O)cc1)NC(=O)[C@H](C)NC(=O)[C@H](CC(=O)O)NC(=O)[C@H](CCC(=O)O)NC(=O)[C@H](Cc1c[nH]cn1)NC(=O)[C@@H](N)Cc1ccc(O)cc1)C(=O)N[C@H](C(=O)N[C@@H](C)C(=O)N[C@@H](Cc1c[nH]cn1)C(=O)N[C@@H](CC(C)C)C(=O)N[C@@H](CC(C)C)C(=O)O)C(C)C` the AST was 92 ± 5 IU/L (mouse, SN model; dose not given).
`Cc1ccc2c(n1)c(-c1cccc(S(C)(=O)=O)c1)c(C)n2C/C(F)=C/CN` gave a terminal half-life of 29.5 to 34 h (healthy male volunteers, plasma; oral, 200 mg, day 1, multiple ascending dose).
`O=C1C(P(=O)(O)O)CCCN1O` (stereo not drawn) has a half-life ratio of 10 (cynomolgus monkey; intravenous, dose not given; baseline: monkey over mouse).
For `CC(C)C(=O)OC1O[C@@H]2O[C@@]3(C)CC[C@H]4[C@H](C)CCC([C@H]1C)[C@@]24OO3` (stereo partly drawn), the dead embryos was 5 count (Tg(fli1:EGFP) zebrafish embryos; 1.0 µg/mL, up to 48 hpf).
`CCN(Cc1ccccc1)C(=O)CCc1nc(CN2CCN(C(=O)Cc3ccc(OC)c(OC)c3)CC2)no1` has a concentration of less than 90 ng/g (rat, liver; intravenous, 1 mg/kg, 1 h, single dose).
Under “maximum heart rate”, `CC[C@H](C)[C@H](NC(=O)[C@H](Cc1ccccc1)NC(=O)[C@@H]1CCCN1C(=O)[C@H](CCCCN)NC(=O)[C@H](CCCCN)NC(=O)[C@H](Cc1ccccc1)NC(=O)[C@H](Cc1ccccc1)NC(=O)[C@@H](C)NC(=O)[C@@H](N)Cc1ccc(O)cc1)C(=O)N[C@@H](CC(C)C)C(=O)O` is recorded as 435 ± 31 beats/min (anesthetized rat; intrathecal, 10 nmol/rat, 1 to 5 min).

Excerpt of the above:
`Cc1ccc2c(n1)c(-c1cccc(S(C)(=O)=O)c1)c(C)n2C/C(F)=C/CN` gave a terminal half-life of 29.5 to 34 h (healthy male volunteers, plasma; oral, 200 mg, day 1, multiple ascending dose).
`CCCS(=O)(=O)c1ccc2[nH]c(NC(=O)OC)nc2c1` has a percent metabolized of 0.99% (human liver cytosol; 1 µM, 30 min, 1 mg/mL protein).
`COCC(=O)NCCSc1c(-c2ccc(Br)cc2)[nH]c2ccccc12` gave a hepatocyte CLint of 259 µL/min/10⁶ cells (metabolic stability; human, hepatocytes).
